Assay results of several laboratories.
A part holds a random share of what one study measured.

Block 1 — technique: RNA Bind-n-Seq; form: RNA; sample: in vitro; tested at: 365 nM; baseline: no-protein control; reading: higher = stronger binding; endpoint: RBNS enrichment (R)
Target: RNA binding protein fox-1 homolog 2, RRM domain, GST-SBP tag (RBFOX2, Homo sapiens, UniProt O43251-10, residues 100-194)
Setting: natural RNA segment, single round, ends assumed
All sequences stand within: GGGAGUUCUACAGUCCGACGAUC … UGGAAUUCUCGGGUGCCAA
Residues (chain): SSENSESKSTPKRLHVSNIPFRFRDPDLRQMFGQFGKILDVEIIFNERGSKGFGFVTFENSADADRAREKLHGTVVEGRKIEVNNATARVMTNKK
CGGGACAGAUGGACAGACAGCCACCCUGAGAACCCCUCUGGGAAAAUCUAUUCCUGCCACCACUGGGCAAACAGAAGAAUUUUUCUGUCUUUGGAGAGUAUUUUAGAAAC: 0.485
GCUGACUAAACCCAGAAAGCCAAGGCUCUGCCAGUGGAAGAGACUUCACUUUUGUAGACCUUCCCUGAAGUCCAUGGAACAGACCUAAGGGAACAACUGAGCAUCAAAAC: 0.412
GAGCAGAAGAAAUACCAAAAUGUUUCCAAAAUUUUUUUAAAAGCUGAGAUUUCCAGCUUUAUAACCAAAGCUUGAUAUAUGUCACAUUGUCACAGAAGAGAGAAAAGAUC: 0.919
CACAGGUGCCUGUGCACUUUGACGGUUAAUGCCACCAUGUAGGGAUUAUCGCGAGUGGUUGACCUUACACUUACUCCUUAAAUAGCAGUGAGUAAUGCAUUUGAGCUGUC: 0.43
GCUACACUAAGAAAGAAAUAGAGUUUGACAUAAGUUGAGAUUUUAGUGUGAUCUGGAUGUGUGAUAAUCCAUUUUUAGAAUAUUAAUUUCAUUACCCAUUAAUUAUGGCC: 1.48
UUUGAAACAAAGCUGUACGGUUUGAUCGAUGAACGUAUUUAAAGCAUUUCAUGCAAUGACAAAGUGCUCAGUAGUGGAAGGCAGGCUGUGACCAGUCUGCCUGCUCCUUA: 0.354
UUUUCUCACUUGCACCCCUGCACCUCGUUAUGACCCCUAUUUUUCUGGGAUUUUCUUGGUCCUCAUUUUCUGACUCUCUCCCACAACCCACUCCAAAAGGUAGUACCUCA: 1.06
CCGUAGAUUAGCCUUUAGAAGUCAGUGUGGUGGCCGGCAGUGAAGUUUUCUUCACUAACAUUUAUUACCCUAGAUUAUUCAUGGGAAUCUGGAACUGUUGGACACAGUUG: 0.209

Block 2 — technique: protein-binding microarray; form: double-stranded DNA, one strand shown; sample: in vitro; tested at: 940 nM top; setting: 60-bp whole probe; added: salmon DNA 0.4 mg/ml; baseline: random background probes; reading: higher = stronger binding; endpoint: fitted relative affinity; all sequences stand within: GCCTAGCAC … GTCTTGATTCGCTTGACGCTGCTG
Target: Interferon regulatory factor 5, full length, phosphomimetic (IRF5, Homo sapiens, UniProt Q13568-2, residues 1-514, S451D/S453D/S456D/S462D)
TTAGGTTTCGACACTAGGTTAGTGCTA: 8.36 z-score
TTAGGTTTCCTTCACCTTTAGTGCTAG: 1.87 z-score
GTCCACTCCAGACCGTTTGCGTGCTAG: 0.0974 z-score
TTAGGACTGGACTATGGGTTAGTGCTA: -0.417 z-score
TTAGGACGGGGGTATCGGTTAGTGCTA: 8.16 z-score
TTAGGACTGGGGTCTGGGTTAGTGCTA: -0.59 z-score
TTAGATTTTGGGTATCGATTAGTGCTA: 3.61 z-score
TTAGGTCTCGACACTGGGTTAGTGCTA: 1.24 z-score
TTAGATTTCGGGTGTCGATTAGTGCTA: 1.22 z-score
TCAACACTAATTTTTACACTGTGCTAG: 0.497 z-score
GAGGGTATCGGTTTCGGGACGTGCTAG: 6.67 z-score
GACGGTTTGCTTTTCCTGACGTGCTAG: 0.368 z-score
TATGTTCCCTATATAAGGCGGTGCTAG: 0.115 z-score
TTAGATATCAGTAGCGATTAGTGCTAG: -0.0514 z-score
GAAGTAATTTCAAACCACAGGTGCTAG: 0.0758 z-score
TGAGGTATCCTACTGCTTTAGTGCTAG: -0.239 z-score
CTTCCCCTCTCTTTCCAACTGTGCTAG: 0.767 z-score
TTGGATTTCAGTTCCGATTAGTGCTAG: 1.58 z-score
GACGGTCGCGGACTGGGGACGTGCTAG: -0.369 z-score

Block 3 — technique: universal PBM; form: double-stranded DNA, one strand shown; sample: in vitro; tested at: 600 nM; reading: higher = stronger binding; endpoint: E-score
Target: Sal-like protein 4, full length isoform A (SALL4, Homo sapiens, UniProt Q9UJQ4, residues 1-1053)
Sequence of UniProt Q9UJQ4 (whole entry, looked up): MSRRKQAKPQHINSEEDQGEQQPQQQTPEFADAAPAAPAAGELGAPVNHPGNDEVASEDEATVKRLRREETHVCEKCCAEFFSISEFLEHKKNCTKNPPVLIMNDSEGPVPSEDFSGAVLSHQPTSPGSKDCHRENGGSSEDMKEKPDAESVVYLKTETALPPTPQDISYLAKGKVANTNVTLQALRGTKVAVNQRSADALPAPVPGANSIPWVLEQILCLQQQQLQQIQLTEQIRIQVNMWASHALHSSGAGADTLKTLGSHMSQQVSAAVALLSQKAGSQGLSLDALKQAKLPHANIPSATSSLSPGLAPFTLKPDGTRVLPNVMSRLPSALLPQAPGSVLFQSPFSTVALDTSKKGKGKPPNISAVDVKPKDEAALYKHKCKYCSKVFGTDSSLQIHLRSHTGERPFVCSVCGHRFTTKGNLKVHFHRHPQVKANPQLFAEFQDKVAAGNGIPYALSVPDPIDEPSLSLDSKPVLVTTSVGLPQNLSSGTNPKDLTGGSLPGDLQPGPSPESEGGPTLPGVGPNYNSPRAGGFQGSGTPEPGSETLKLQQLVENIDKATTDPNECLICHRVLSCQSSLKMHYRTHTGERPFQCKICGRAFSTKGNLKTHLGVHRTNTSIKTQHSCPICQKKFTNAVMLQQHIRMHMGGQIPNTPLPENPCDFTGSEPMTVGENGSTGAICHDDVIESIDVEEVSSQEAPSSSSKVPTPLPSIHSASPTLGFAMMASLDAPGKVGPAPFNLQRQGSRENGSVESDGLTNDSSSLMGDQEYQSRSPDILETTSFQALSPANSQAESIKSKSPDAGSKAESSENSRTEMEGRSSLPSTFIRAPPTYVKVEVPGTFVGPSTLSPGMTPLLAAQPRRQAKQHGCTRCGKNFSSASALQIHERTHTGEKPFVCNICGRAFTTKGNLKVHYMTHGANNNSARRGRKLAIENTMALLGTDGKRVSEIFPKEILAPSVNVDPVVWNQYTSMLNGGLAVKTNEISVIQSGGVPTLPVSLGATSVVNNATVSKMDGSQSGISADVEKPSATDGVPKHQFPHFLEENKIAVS
Setting: 8-mer, flanks averaged, mean of replicates
AGCTTTAT: 0.0706
CGTGGTCA: -0.21
ACCGACGC: -0.182
CGAATTGA: 0.0159
ACGACGTG: -0.0169
CGTTCGAC: -0.152
AATGGAAA: 0.197
CCATTATA: 0.278
GGTCATAA: 0.321
ACGCTCCA: -0.0899
ACAAGGTA: 0.194
GCCCACCA: -0.221
AGAATTTG: 0.142
AATCTTCT: -0.0179
CTAGGCGA: -0.126
AAGTAGTG: 0.059
CGCTCGAC: -0.333
AAGTTAAG: -0.0283
CCTGCCAG: -0.235
GCATAACA: 0.242
CGTGGGCA: -0.266
AATCATTA: 0.326

Block 4 — technique: protein binding microarray; form: double-stranded DNA, one strand shown; sample: in vitro; tested at: not given; baseline: not given; reading: higher = stronger binding; endpoint: E-score
Target: Histone acetyltransferase KAT6A, winged helix 1, GST fusion (KAT6A, Homo sapiens, UniProt Q92794, residues 1-85)
Setting: 8-mer, flanks averaged, mean of 2 arrays, mostly near background
Construct (chain): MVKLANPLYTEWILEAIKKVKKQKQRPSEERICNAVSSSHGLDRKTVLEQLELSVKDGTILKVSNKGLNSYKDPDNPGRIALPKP
TGACATAA: -0.18
TCGGATCA: 0.00942
TAGTCGCA: -0.0334
GGCTGACA: 0.153
CATTTCTA: -0.0201
GTTATATA: -0.177
AAGGCATG: -0.183
AAGTTGCG: -0.00204
CACTAACA: -0.175
TGTACGAA: -0.0231
CGCACAAA: 0.0515
CACGAGTA: -0.00178
ATAAGATC: -0.251
GTTGCTGA: -0.091
ACCTACGA: -0.166
CTGGTGGC: -0.234
ACGGACTC: 0.253
CAGGCCCG: 0.252
GACGCGAC: 0.297
AAGGTCCG: 0.207
CGAGTAGC: 0.165
CGCCATTC: -0.121
ACAATGTG: -0.219
ACTAGTGG: -0.285
ACATCCGT: 0.13
